Published values pooled from the literature.
Each line is one published result; not all experiments were run side by side. ± marks the error that the study gave.

O=C(c1ccc(F)c(F)c1Nc1ccc(I)cc1F)N1CC(O)([C@@H]2CCCCN2)C1  adverse events (human patients; oral, dose not given, dose escalation, suspension): 100%
CC(C)C[C@H](NC(=O)[C@H](CCCCN)NC(=O)OCC1c2ccccc2-c2ccccc21)C(=O)N[C@H](C(=O)N[C@@H](Cc1ccccc1)C(=O)N[C@@H](Cc1ccccc1)C(=O)N[C@@H](CCCCN)C(=O)NCC(=O)N[C@@H](Cc1ccccc1)C(=O)N[C@@H](C)C(=O)N[C@@H](Cc1c[nH]c2ccccc12)C(=O)N[C@@H](CC(N)=O)C(=O)N[C@H](C(=O)N[C@H]1CSSC[C@@H](C(=O)N[C@@H](Cc2c[nH]cn2)C(=O)N[C@@H](CCCNC(=N)N)C(=O)N[C@@H](CCCNC(=N)N)C(=O)N[C@@H](C)C(=O)N[C@@H](CC(N)=O)C(N)=O)NC(=O)[C@H](C(C)C)NC(=O)[C@H](CCCNC(=N)N)NC(=O)[C@H](C(C)C)NC(=O)CNC(=O)[C@H](CC(N)=O)NC(=O)[C@H](CCCNC(=N)N)NC(=O)[C@H](Cc2ccc(O)cc2)NC(=O)[C@H](C(C)C)NC1=O)C(C)C)C(C)C  basophils (ICR mouse, blood; intramammary, 5 mg/kg, day 5, 3 d dosing): 1.42 ± 0.07%
CC(=O)c1c(C)c2cnc(Nc3ccc(C4CCN(CCS(C)(=O)=O)CC4)cn3)nc2n(C2CCCC2)c1=O  CL (human, plasma; oral, 25 mg once daily, day 21, multiple doses): 1390 mL/min
C=CCNc1c(O)cc2c(O)c1C[C@@H](C)C[C@H](OC)[C@H](O)[C@@H](C)/C=C(\C)[C@H](OC(N)=O)[C@@H](OC)/C=C\C=C(/C)C(=O)N2  patients with ALT increase (unresectable or metastatic sarcoma; intravenous, 225 mg/m^2, grade 3-4 lab change): 33%
Cc1cc(C)c(CNC(=O)c2cc(Cl)c3c(c2C)O[C@@](C)([C@H]2CC[C@H](N(C)C)CC2)O3)c(=O)[nH]1  Rash incidence (human, relapsed/refractory NHL; concentration not given, treatment-related TEAEs, grade 5): 0%
COc1cc2c(Oc3ccc4[nH]c(C)cc4c3F)ccnc2cc1OCC1(N)CC1  Dizzy incidence (paediatric refractory sarcoma patients; 12 mg): 9.1%
O=C1Nc2cc3[nH]nc(-c4ccncc4)c3cc2CN1Cc1ccccc1  patients with headache (CTCAE v4.03; advanced solid tumour patients; intravenous, 1.8 mg/kg, schedules 1/2): 0%
O=S(=O)(Nc1ccccc1)c1ccc(NC(=S)Nc2ccccc2)cc1  relative organ weight (male mice, thymus; oral, 20 mg/kg daily 14 days; relative to: body weight): 0.21%
C[C@]1(CO)Cc2ncn(-c3ccc(C#N)c(Cl)c3)c2C(=O)O1  drug-related orthostatic hypotension incidence (Japanese subjects; 20 mg single dose): 33.3%
[O-][S+]1CCc2nc(N3CCC(c4ncc(Cl)cn4)CC3)nc(NC3(CO)CCC3)c21 (centres unmarked)  creatine kinase (phase I trial; healthy male volunteers, blood; oral, 48 mg single dose, after last treatment): 229 U/L
COc1ccccc1-c1cccc(CN2CCCC(C(=O)NCCc3ccc(F)cc3)C2)c1 (centres unmarked)  cytotoxicity efficacy (Vero-E6; CellTiter-Glo ATP; concentration not given, 72 h, first round 5-point; relative to: DMSO 0%, hyamine -100%, more negative, more toxic): -12%
CO[C@H]1C[C@@H]2CC[C@@H](C)[C@@](O)(O2)C(=O)C(=O)N2CCCC[C@H]2C(=O)O[C@H]([C@H](C)C[C@@H]2CC[C@@H](OC(=O)NCCOCCOCCOCCOCCOCCOCCOCCOCCC(=O)N3CCc4cc(Cn5nc(-c6ccc7oc(N)nc7c6)c6c(N)ncnc65)ccc4C3)[C@H](OC)C2)C[C@@H](O)[C@H](C)/C=C(\C)[C@@H](O)[C@@H](OC)C(=O)[C@H](C)C[C@H](C)/C=C/C=C/C=C/1C  AE leading to discontinuation (patients with advanced solid tumours; intravenous, 10 mg weekly, grade 3 or higher): 0%
CCOc1ccccc1CNCc1cccn1-c1nnc(N2CCN(c3ccccc3)CC2)s1  cytotoxicity efficacy (Vero-E6; CellTiter-Glo ATP; concentration not given, 72 h, first round 5-point; relative to: DMSO 0%, hyamine -100%, more negative, more toxic): -25.1%
CC(=O)O[C@@H]1CC[C@@]2(C)[C@@H](CC[C@]3(C)[C@@H]2C(=O)C=C2[C@@H]4[C@@H](C)[C@H](C)CC[C@]4(C)CC[C@]23C)[C@@]1(C)C(=O)O  terminal elimination rate constant (non-compartmental analysis; female Wistar rats, plasma; oral gavage, 1 mg/kg): 0.07 h⁻¹
CN1CCN(S(=O)(=O)c2cc([N+](=O)[O-])ccc2N(CCOS(C)(=O)=O)CCOS(C)(=O)=O)CC1  Tmax (naive female NSG mice, plasma; intraperitoneal, 10 mg/kg): 15 min
C[C@@H]1OC(=O)NN=C1c1ccc(-c2ccc(F)cc2)c(C(F)(F)F)c1  patients with adverse event (phase I trial, item: Presyncope worst grade 2; human patients; 10 mg loading then 0.5 mg daily): 100%
CN1CC[C@@H](c2c(O)cc(O)c3c(=O)cc(-c4ccc(C(F)(F)F)cc4Cl)oc23)[C@@H]1CO  patients with adverse event (item: febrile neutropenia; B-cell malignancies; oral, 100 mg, grade 3 to 4, intermittent dosing): 0%

Excerpt of the above:
[O-][S+]1CCc2nc(N3CCC(c4ncc(Cl)cn4)CC3)nc(NC3(CO)CCC3)c21 (centres unmarked)  creatine kinase (phase I trial; healthy male volunteers, blood; oral, 48 mg single dose, after last treatment): 229 U/L
